Measured values collected from several papers.
Each line is one published result; not all experiments were run side by side. ± marks the error that the study gave.

| SMILES | host | sample | route | dose | time | setting | Cmax |
| --- | --- | --- | --- | --- | --- | --- | --- |
| O=C(c1cc(Cc2n[nH]c(=O)c3ccccc23)ccc1F)N1CC(CNC2CC2)C1 | female Wistar Han rat | – | oral | 60 mg/kg | day 28 | – | 8120 ng/mL |
| COc1cccc2c1C(=O)c1c(O)c3c(c(O)c1C2=O)CC(O)(C(=O)CO)CC3OC1CC(NC(=O)OC2C=CCCC(C)(C(=O)NCC(=O)O)CC2)C(O)C(C)O1 (centres unmarked) | Sprague Dawley rats male | plasma | intravenous | 21.5 mg/kg/day doxorubicin equivalent | day 3 | – | 1980 ± 427 ng/mL |
| COCC12CCC(OC)C34C5CC6(O)C(OC)C(O)C(O)(C5C6OC(=O)c5ccccc5)C(C(OC)C13)C4N(C)C2 (centres unmarked) | Sprague-Dawley rat | plasma | oral | dose not given | – | in PCW extract | 152 ± 22 ng/mL |
| CC(C)N1CCCCC1C(=O)NC(Cc1ccc(-c2ccccc2)cc1)B(O)O (centres unmarked) | male Sprague-Dawley rats | plasma | intravenous | 1 mg/kg | – | citrate ester | 2660 nM |
| O=C(O)/C=C\c1ccc2occc2c1O[C@@H]1O[C@H](CO)[C@@H](O)[C@H](O)[C@H]1O | rat | plasma | oral | 217 mg/kg Pc extract | – | dosed as Pc extract | 289 ± 132 ng/mL |
| CCN1CC2(COC)C(O)CC(OC)C34C5CC6(O)C(OC)C(O)C(O)(C5C6OC(=O)c5ccccc5)C(C(OC)C23)C14 (centres unmarked) | Sprague-Dawley rat | plasma | oral | dose not given | – | in PCW extract | 59.9 ± 5.59 ng/mL |
| CN1CCCCC1C(=O)NC(Cc1ccc(-c2ccccc2)cc1)B(O)O (centres unmarked) | male Sprague-Dawley rats | plasma | intravenous | 1 mg/kg | – | citrate ester | 1710 nM |
| [2H]c1nc([2H])c(-c2nc([2H])n3c2C([2H])([2H])N=C(c2ccccn2)c2cc(C#C)ccc2-3)o1 | Sprague Dawley rat | brain | oral | 2 mg/kg | – | cassette dosing | 334 nM |

For quick reference, copied from above:
| SMILES | host | sample | route | dose | time | setting | Cmax |
| --- | --- | --- | --- | --- | --- | --- | --- |
| CN1CCCCC1C(=O)NC(Cc1ccc(-c2ccccc2)cc1)B(O)O (centres unmarked) | male Sprague-Dawley rats | plasma | intravenous | 1 mg/kg | – | citrate ester | 1710 nM |
